{"sequences": {"note": "Chains of the proteins cited; added tags and fusions are not shown. Residues count along the entry.", "UniProt P41146, whole entry": "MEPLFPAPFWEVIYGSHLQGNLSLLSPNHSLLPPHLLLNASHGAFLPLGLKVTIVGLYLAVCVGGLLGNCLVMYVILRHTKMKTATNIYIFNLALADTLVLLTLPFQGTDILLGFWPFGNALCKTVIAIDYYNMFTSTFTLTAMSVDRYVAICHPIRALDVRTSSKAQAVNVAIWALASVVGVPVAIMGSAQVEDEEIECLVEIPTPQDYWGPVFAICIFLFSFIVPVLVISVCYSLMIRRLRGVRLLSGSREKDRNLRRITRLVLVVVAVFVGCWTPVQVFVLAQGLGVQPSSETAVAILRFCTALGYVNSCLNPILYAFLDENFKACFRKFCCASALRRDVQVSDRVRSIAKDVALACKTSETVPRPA", "UniProt Q8I719, whole entry": "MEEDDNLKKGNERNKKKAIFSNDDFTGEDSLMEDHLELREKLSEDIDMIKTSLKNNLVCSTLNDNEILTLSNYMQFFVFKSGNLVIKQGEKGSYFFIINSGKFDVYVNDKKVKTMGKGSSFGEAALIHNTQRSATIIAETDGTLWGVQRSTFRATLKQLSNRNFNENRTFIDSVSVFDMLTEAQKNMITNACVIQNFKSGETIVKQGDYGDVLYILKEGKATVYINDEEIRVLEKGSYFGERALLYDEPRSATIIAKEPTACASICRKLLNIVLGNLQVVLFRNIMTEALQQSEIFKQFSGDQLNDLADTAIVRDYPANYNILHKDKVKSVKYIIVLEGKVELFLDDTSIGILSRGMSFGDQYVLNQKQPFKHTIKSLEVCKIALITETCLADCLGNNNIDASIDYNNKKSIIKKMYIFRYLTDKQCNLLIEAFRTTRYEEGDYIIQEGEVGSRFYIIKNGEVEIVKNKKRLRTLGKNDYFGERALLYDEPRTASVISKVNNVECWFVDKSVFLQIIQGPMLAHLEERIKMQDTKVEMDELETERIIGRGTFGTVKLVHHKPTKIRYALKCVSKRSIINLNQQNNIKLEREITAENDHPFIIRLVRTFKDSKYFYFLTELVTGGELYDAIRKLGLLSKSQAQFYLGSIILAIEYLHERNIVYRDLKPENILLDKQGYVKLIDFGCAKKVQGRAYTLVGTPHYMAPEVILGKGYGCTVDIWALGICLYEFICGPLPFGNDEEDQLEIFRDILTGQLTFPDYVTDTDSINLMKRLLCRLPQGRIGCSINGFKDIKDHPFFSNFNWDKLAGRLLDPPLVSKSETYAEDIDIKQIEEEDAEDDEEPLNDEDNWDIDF", "UniProt P37136, 32-574 limits assumed": "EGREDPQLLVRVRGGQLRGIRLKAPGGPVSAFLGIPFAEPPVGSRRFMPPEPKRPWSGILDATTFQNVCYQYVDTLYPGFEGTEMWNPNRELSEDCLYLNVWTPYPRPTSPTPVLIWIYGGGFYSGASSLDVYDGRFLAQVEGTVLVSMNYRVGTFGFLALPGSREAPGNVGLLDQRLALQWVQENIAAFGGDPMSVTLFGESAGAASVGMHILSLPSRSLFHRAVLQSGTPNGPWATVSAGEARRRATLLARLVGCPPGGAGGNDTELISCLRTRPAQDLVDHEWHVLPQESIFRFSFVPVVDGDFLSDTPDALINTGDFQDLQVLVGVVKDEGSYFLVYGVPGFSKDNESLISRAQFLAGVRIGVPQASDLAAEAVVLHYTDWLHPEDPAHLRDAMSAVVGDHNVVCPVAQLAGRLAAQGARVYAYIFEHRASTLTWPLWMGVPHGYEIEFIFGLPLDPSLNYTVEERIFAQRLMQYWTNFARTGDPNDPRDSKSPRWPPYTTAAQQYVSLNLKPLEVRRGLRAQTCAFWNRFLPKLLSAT", "UniProt P59768, 2-68 partner limits assumed": "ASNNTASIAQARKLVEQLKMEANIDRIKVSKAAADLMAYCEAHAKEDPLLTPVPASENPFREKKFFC", "UniProt P62873, whole entry partner": "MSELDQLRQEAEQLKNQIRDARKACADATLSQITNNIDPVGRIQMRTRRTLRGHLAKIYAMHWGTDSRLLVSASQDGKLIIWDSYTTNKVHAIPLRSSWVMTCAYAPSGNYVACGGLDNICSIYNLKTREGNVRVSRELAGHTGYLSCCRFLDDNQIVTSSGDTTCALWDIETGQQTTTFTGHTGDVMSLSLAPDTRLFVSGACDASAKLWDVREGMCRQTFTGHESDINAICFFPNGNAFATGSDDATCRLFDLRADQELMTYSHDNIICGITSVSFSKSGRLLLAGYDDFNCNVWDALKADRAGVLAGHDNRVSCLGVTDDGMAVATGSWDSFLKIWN", "UniProt P63096, 2-354 partner limits assumed": "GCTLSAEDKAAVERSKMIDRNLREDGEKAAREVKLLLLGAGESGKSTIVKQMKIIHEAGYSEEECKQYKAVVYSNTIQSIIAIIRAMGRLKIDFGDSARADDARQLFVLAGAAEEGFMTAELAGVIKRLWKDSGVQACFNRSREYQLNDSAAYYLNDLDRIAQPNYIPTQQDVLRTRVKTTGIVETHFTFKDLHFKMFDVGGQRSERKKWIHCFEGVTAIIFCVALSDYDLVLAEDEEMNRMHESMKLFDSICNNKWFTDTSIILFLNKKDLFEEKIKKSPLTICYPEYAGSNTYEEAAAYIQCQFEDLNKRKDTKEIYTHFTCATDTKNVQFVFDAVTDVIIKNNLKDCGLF"}, "data": "Measured values of several laboratories", "OPRL1": "Nociceptin receptor (OPRL1, Homo sapiens, UniProt P41146)", "note": "Each line is one published result; not all experiments were run side by side. Numbers after ± are the reported error."}
{"Compound": "CCCN(C)Cc1onc(-c2cccc(Cl)c2)c1-c1ccnc(N[C@@H]2CCN(C(=O)c3ccn(C)n3)C2)n1", "target or system": "cGMP-dependent protein kinase (PKG, Plasmodium falciparum, UniProt Q8I719)", "test": "kinase activity, inhibitor, IMAP", "measurement": "Ki", "value": "23.8 ± 7.7 nM"}
{"Compound": "CNC(=O)CC1C(=O)N(C2CCN([C@H]3CC[C@@H](C(C)C)CC3)CC2)c2ccccc21 (stereo partly drawn)", "target or system": "OPRL1", "test": "G protein interaction, BRET", "test system": "HEK293 membranes", "scale": "reference: N/OFQ", "measurement": "fold lower potency", "value": "4 fold"}
{"Compound": "Cc1ccccc1S(=O)(=O)Nc1cccc(C(=O)NC2CCN(c3ncnc4[nH]cnc34)CC2)c1", "target or system": "SARS-CoV-2", "test system": "Wuhan-Hu-1", "setting": "7.407 µM", "scale": "reference: untreated infected cells", "measurement": "relative infection", "value": "42%"}
{"Compound": "CC[C@H](C)[C@H](NC(=O)[C@H](C)NC(=O)[C@H](CCC(=O)O)NC(=O)[C@H](CCC(=O)O)NC(=O)[C@H](CC(C)C)NC(=O)[C@H](CCCCN)NC(=O)[C@H](CCCCN)NC(=O)[C@H](CCSC)NC(=O)[C@H](CCC(=O)O)NC(=O)[C@H](Cc1ccc(O)cc1)NC(=O)[C@H](CCC(=O)O)NC(=O)[C@H](CC(C)C)NC(=O)[C@H](CC(=O)O)NC(=O)[C@H](CC(C)C)NC(=O)[C@H](Cc1ccccc1)NC(=O)[C@@H](NC(=O)[C@@H](NC(=O)[C@H](CC(N)=O)NC(=O)[C@@H](NC(=O)[C@H](CCC(N)=O)NC(=O)[C@H](CC(=O)O)NC(=O)[C@H](CC(C)C)NC(=O)[C@@H](N)CO)[C@@H](C)CC)C(C)C)[C@@H](C)O)C(=O)N[C@@H](CCCCN)C(=O)N[C@@H](CCCCN)C(=O)N[C@@H](CC(C)C)C(=O)N[C@@H](CCC(=O)O)C(=O)N[C@@H](CCC(=O)O)C(=O)N[C@@H](CO)C(=O)N[C@@H](Cc1ccc(O)cc1)C(=O)N[C@H](C(=O)N[C@@H](CC(=O)O)C(=O)N[C@@H](CC(C)C)C(=O)N[C@@H](CCCCN)C(=O)N[C@@H](CCC(=O)O)C(=O)N[C@@H](CC(C)C)C(=O)O)[C@@H](C)CC", "target or system": "SARS-CoV-2 JN.1 pseudovirus", "test": "pseudovirus infection, inhibitor, luciferase", "test system": "Caco-2", "setting": "24 h", "measurement": "IC50", "value": "129 nM"}
{"Compound": "CS(=O)(=O)C=CCNC(=O)c1ccc2[nH]c(=O)n(C3CC3)c2c1", "target or system": "Venezuelan equine encephalitis virus", "test": "viral replication, nanoluciferase reporter", "test system": "TC83-nLuc-nsP3", "measurement": "IC50", "value": "> 10000 nM"}
{"Compound": "O=C(c1ccncc1)N1CCCC2(C1)Nc1ccccc1N=C2NC1CCCC1 (stereo not drawn)", "target or system": "HepG2", "test": "cell viability, CellTiter-Glo", "setting": "72 h", "measurement": "CC50", "value": "70000 nM"}
{"Compound": "O=C(NC1CCN(c2ncnc3[nH]cnc23)CC1)c1cccc(NS(=O)(=O)c2ccc([N+](=O)[O-])cc2)c1", "target or system": "SARS-CoV-2", "test system": "Wuhan-Hu-1", "setting": "0.01016 µM", "scale": "reference: untreated infected cells", "measurement": "relative infection", "value": "87.3%"}
{"Compound": "O=C(NCc1ccccc1)C1C(=O)N(O)C(=O)c2cc([N+](=O)[O-])ccc21 (stereo not drawn)", "target or system": "Lymphocytic choriomeningitis mammarenavirus", "test": "minigenome reporter gene", "setting": "100 µM", "scale": "reference: DMSO", "measurement": "remaining activity", "value": "81.6%"}
{"Compound": "CC[C@H](C)[C@H](NC(=O)[C@H](C)NC(=O)[C@H](CCC(=O)O)NC(=O)[C@H](CCC(=O)O)NC(=O)[C@H](CC(C)C)NC(=O)[C@H](CCCCN)NC(=O)[C@H](CCCCN)NC(=O)[C@H](CCSC)NC(=O)[C@H](CCC(=O)O)NC(=O)[C@H](Cc1ccc(O)cc1)NC(=O)[C@H](CCC(=O)O)NC(=O)[C@H](CC(C)C)NC(=O)[C@H](CC(=O)O)NC(=O)[C@H](CC(C)C)NC(=O)[C@H](Cc1ccccc1)NC(=O)[C@@H](NC(=O)[C@@H](NC(=O)[C@H](CC(N)=O)NC(=O)[C@@H](NC(=O)[C@H](CCC(N)=O)NC(=O)[C@H](CC(=O)O)NC(=O)[C@H](CC(C)C)NC(=O)[C@@H](N)CO)[C@@H](C)CC)C(C)C)[C@@H](C)O)C(=O)N[C@@H](CCCCN)C(=O)N[C@@H](CCCCN)C(=O)N[C@@H](CC(C)C)C(=O)N[C@@H](CCC(=O)O)C(=O)N[C@@H](CCC(=O)O)C(=O)N[C@H](C(=O)N[C@@H](Cc1ccc(O)cc1)C(=O)N[C@H](C(=O)N[C@@H](CC(=O)O)C(=O)N[C@@H](CC(C)C)C(=O)N[C@@H](CCCCN)C(=O)N[C@@H](CCC(=O)O)C(=O)N[C@@H](CC(C)C)C(=O)O)[C@@H](C)CC)[C@@H](C)O", "target or system": "SARS-CoV-2 Delta pseudovirus", "test": "pseudovirus infection, inhibitor, luciferase", "test system": "Caco-2", "setting": "24 h", "measurement": "IC50", "value": "718 nM"}
{"Compound": "CCOP(=O)(OCC)ON1C(=O)c2cccc3cccc(c23)C1=O", "target or system": "Ache (Rattus norvegicus, UniProt P37136)", "test": "enzyme activity, inhibitor, discontinuous Ellman", "test system": "rat, postnatal day 70, rat heart homogenate", "setting": "15 min, 37 °C", "measurement": "IC50", "value": "4 nM"}
{"Compound": "CC(C)N1CN(C2c3ccccc3CCc3ccccc32)n2cc(C(=O)O)c(=O)c(O)c2C1=O", "target or system": "Junin virus", "test system": "HEK-293T", "scale": "reference: CC50 over EC50", "measurement": "selectivity index", "value": "≥ 1000"}
{"Compound": "CC[C@H](C)[C@H](NC(=O)[C@H](C)NC(=O)[C@H](CCC(=O)O)NC(=O)[C@H](CCC(=O)O)NC(=O)[C@H](CC(C)C)NC(=O)[C@H](CCCCN)NC(=O)[C@H](CCCCN)NC(=O)[C@H](CCSC)NC(=O)[C@H](CCC(=O)O)NC(=O)[C@H](Cc1ccc(O)cc1)NC(=O)[C@H](CCC(=O)O)NC(=O)[C@H](CC(C)C)NC(=O)[C@H](CC(=O)O)NC(=O)[C@H](CC(C)C)NC(=O)[C@H](Cc1ccccc1)NC(=O)[C@H](Cc1ccccc1)NC(=O)[C@@H](NC(=O)[C@H](CC(N)=O)NC(=O)[C@@H](NC(=O)[C@H](CCC(N)=O)NC(=O)[C@H](CC(=O)O)NC(=O)[C@H](CC(C)C)NC(=O)[C@@H](N)CO)[C@@H](C)CC)C(C)C)C(=O)N[C@@H](CCCCN)C(=O)N[C@@H](CCCCN)C(=O)N[C@@H](CC(C)C)C(=O)N[C@@H](CCC(=O)O)C(=O)N[C@@H](CCC(=O)O)C(=O)N[C@@H](CO)C(=O)N[C@@H](Cc1ccc(O)cc1)C(=O)N[C@H](C(=O)N[C@@H](CC(=O)O)C(=O)N[C@@H](CC(C)C)C(=O)N[C@@H](CCCCN)C(=O)N[C@@H](CCC(=O)O)C(=O)N[C@@H](CC(C)C)C(=O)O)[C@@H](C)CC", "target or system": "SARS-CoV-2 XBB.1.5 pseudovirus", "test": "pseudovirus infection, inhibitor, luciferase", "test system": "Caco-2", "setting": "24 h", "measurement": "IC50", "value": "103 nM"}
{"Compound": "O=C(Nc1ccc2c(c1)C(=O)N(O)C(=O)C2C(=O)NCc1ccc(F)cc1)c1ccccc1 (stereo not drawn)", "target or system": "Lymphocytic choriomeningitis mammarenavirus", "test": "minigenome reporter gene", "setting": "100 µM", "scale": "reference: DMSO", "measurement": "remaining activity", "value": "62.5%"}
{"Compound": "COc1ccc(S(=O)(=O)Nc2cccc(C(=O)NC3CCN(c4ncnc5[nH]cnc45)CC3)c2)cc1", "target or system": "SARS-CoV-2", "test system": "Wuhan-Hu-1", "setting": "66.67 µM", "scale": "reference: untreated infected cells", "measurement": "relative infection", "value": "20.9%"}
{"Compound": "O=C(Nc1ccc(F)cc1)C1C(=O)N(O)C(=O)c2cc([N+](=O)[O-])ccc21 (stereo not drawn)", "target or system": "Lymphocytic choriomeningitis mammarenavirus", "test": "minigenome reporter gene", "setting": "100 µM", "scale": "reference: DMSO", "measurement": "remaining activity", "value": "63%"}
{"Compound": "CC[C@H](C)[C@H](NC(=O)[C@H](C)NC(=O)[C@H](CCC(=O)O)NC(=O)[C@H](CCC(=O)O)NC(=O)[C@H](CC(C)C)NC(=O)[C@H](CCCCN)NC(=O)[C@H](CCCCN)NC(=O)[C@H](CCSC)NC(=O)[C@H](CCC(=O)O)NC(=O)[C@H](Cc1ccc(O)cc1)NC(=O)[C@H](CCC(=O)O)NC(=O)[C@H](CC(C)C)NC(=O)[C@H](CC(=O)O)NC(=O)[C@H](CC(C)C)NC(=O)[C@H](Cc1ccccc1)NC(=O)[C@@H](NC(=O)[C@@H](NC(=O)[C@H](CC(N)=O)NC(=O)[C@@H](NC(=O)[C@H](CCC(N)=O)NC(=O)[C@H](CC(=O)O)NC(=O)[C@H](CC(C)C)NC(=O)[C@@H](N)CO)[C@@H](C)CC)C(C)C)[C@@H](C)O)C(=O)N[C@@H](CCCCN)C(=O)N[C@@H](CCCCN)C(=O)N[C@@H](CC(C)C)C(=O)N[C@@H](CCC(=O)O)C(=O)N[C@@H](CCC(=O)O)C(=O)N[C@@H](C)C(=O)N[C@@H](Cc1ccc(O)cc1)C(=O)N[C@H](C(=O)N[C@@H](CC(=O)O)C(=O)N[C@@H](CC(C)C)C(=O)N[C@@H](CCCCN)C(=O)N[C@@H](CCC(=O)O)C(=O)N[C@@H](CC(C)C)C(=O)O)[C@@H](C)CC", "target or system": "SARS-CoV-2 Delta pseudovirus", "test": "pseudovirus infection, inhibitor, luciferase", "test system": "Caco-2", "setting": "24 h", "measurement": "IC50", "value": "440 nM"}
{"Compound": "Cc1ccc(S(=O)(=O)Nc2cccc(C(=O)NC3CCN(c4ncnc5[nH]cnc45)CC3)c2)cc1Cl", "target or system": "SARS-CoV-2", "test system": "Wuhan-Hu-1", "setting": "7.407 µM", "scale": "reference: untreated infected cells", "measurement": "relative infection", "value": "38.8%"}
{"Compound": "CC(C)[C@H]1CC[C@@H](N2CCC3(CC2)C(=O)NCN3c2ccccc2)CC1", "target or system": "OPRL1", "test": "G protein activation, GTPγS binding", "test system": "CHO membranes", "scale": "reference: compound over N/OFQ EC50", "measurement": "concentration ratio", "value": 14}
{"note": "Repeated from above:"}
{"Compound": "CC[C@H](C)[C@H](NC(=O)[C@H](C)NC(=O)[C@H](CCC(=O)O)NC(=O)[C@H](CCC(=O)O)NC(=O)[C@H](CC(C)C)NC(=O)[C@H](CCCCN)NC(=O)[C@H](CCCCN)NC(=O)[C@H](CCSC)NC(=O)[C@H](CCC(=O)O)NC(=O)[C@H](Cc1ccc(O)cc1)NC(=O)[C@H](CCC(=O)O)NC(=O)[C@H](CC(C)C)NC(=O)[C@H](CC(=O)O)NC(=O)[C@H](CC(C)C)NC(=O)[C@H](Cc1ccccc1)NC(=O)[C@@H](NC(=O)[C@@H](NC(=O)[C@H](CC(N)=O)NC(=O)[C@@H](NC(=O)[C@H](CCC(N)=O)NC(=O)[C@H](CC(=O)O)NC(=O)[C@H](CC(C)C)NC(=O)[C@@H](N)CO)[C@@H](C)CC)C(C)C)[C@@H](C)O)C(=O)N[C@@H](CCCCN)C(=O)N[C@@H](CCCCN)C(=O)N[C@@H](CC(C)C)C(=O)N[C@@H](CCC(=O)O)C(=O)N[C@@H](CCC(=O)O)C(=O)N[C@@H](CO)C(=O)N[C@@H](Cc1ccc(O)cc1)C(=O)N[C@H](C(=O)N[C@@H](CC(=O)O)C(=O)N[C@@H](CC(C)C)C(=O)N[C@@H](CCCCN)C(=O)N[C@@H](CCC(=O)O)C(=O)N[C@@H](CC(C)C)C(=O)O)[C@@H](C)CC", "target or system": "SARS-CoV-2 JN.1 pseudovirus", "test": "pseudovirus infection, inhibitor, luciferase", "test system": "Caco-2", "setting": "24 h", "measurement": "IC50", "value": "129 nM"}
